{"data": "Measured values gathered from unrelated publications", "note": "Each numbered part is a random draw from the data of one study; scales do not carry over between parts.", "chain of UniProt Q96D53 (whole entry, looked up)": "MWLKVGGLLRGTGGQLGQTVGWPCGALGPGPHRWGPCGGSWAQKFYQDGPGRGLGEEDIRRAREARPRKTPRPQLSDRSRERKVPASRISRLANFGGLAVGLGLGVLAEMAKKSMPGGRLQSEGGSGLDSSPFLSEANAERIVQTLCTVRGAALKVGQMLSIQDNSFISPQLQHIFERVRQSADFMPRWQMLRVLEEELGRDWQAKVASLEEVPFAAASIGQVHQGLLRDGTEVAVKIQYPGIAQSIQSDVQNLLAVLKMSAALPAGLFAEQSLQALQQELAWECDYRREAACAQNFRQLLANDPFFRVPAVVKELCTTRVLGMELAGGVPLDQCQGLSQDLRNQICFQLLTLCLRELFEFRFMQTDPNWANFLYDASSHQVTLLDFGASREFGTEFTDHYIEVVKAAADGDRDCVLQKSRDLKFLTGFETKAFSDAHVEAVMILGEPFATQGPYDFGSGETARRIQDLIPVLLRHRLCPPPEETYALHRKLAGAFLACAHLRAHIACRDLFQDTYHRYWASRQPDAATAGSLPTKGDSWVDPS", "chain of UniProt Q13163 (whole entry, looked up)": "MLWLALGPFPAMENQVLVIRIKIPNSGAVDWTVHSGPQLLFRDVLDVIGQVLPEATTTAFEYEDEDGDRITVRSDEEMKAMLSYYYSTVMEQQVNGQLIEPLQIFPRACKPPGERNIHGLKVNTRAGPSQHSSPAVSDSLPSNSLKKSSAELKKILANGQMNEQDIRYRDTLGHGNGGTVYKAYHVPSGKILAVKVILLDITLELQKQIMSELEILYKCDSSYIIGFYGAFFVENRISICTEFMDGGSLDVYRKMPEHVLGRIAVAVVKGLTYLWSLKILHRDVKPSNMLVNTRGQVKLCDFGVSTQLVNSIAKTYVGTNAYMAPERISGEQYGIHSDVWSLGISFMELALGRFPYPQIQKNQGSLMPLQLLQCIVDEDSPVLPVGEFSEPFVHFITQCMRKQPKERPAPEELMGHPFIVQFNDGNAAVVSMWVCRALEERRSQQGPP", "chain of UniProt P00519 (whole entry, unmodified, looked up)": "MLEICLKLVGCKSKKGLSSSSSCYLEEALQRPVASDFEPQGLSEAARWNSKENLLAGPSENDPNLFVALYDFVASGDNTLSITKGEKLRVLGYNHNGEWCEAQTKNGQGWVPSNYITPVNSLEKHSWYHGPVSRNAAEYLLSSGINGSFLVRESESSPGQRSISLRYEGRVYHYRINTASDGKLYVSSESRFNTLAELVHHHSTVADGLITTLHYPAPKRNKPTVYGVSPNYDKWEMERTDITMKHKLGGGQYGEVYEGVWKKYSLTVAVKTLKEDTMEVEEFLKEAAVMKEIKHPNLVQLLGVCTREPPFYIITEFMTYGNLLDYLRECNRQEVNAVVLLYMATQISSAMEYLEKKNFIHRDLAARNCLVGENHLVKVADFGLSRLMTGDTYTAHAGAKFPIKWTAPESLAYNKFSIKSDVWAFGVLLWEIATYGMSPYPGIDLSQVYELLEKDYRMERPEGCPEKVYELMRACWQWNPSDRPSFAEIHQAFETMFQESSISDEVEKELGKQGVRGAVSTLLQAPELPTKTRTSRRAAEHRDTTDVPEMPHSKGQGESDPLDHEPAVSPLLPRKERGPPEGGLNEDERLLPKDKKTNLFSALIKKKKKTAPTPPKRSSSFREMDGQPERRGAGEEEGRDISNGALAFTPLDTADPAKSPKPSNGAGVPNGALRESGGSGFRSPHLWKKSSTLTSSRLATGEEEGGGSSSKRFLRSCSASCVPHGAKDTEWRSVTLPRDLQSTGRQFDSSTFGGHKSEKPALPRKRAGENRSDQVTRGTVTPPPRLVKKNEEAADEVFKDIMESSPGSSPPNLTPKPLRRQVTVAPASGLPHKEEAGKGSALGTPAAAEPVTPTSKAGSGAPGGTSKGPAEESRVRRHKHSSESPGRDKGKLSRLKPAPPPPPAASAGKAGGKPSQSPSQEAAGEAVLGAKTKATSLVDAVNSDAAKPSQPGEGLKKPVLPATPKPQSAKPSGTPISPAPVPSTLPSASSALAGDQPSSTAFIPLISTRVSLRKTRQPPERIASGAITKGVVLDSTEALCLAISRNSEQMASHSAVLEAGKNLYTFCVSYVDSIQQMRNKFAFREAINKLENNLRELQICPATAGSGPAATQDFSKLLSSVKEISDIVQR", "chain of UniProt O15530 (whole entry, looked up)": "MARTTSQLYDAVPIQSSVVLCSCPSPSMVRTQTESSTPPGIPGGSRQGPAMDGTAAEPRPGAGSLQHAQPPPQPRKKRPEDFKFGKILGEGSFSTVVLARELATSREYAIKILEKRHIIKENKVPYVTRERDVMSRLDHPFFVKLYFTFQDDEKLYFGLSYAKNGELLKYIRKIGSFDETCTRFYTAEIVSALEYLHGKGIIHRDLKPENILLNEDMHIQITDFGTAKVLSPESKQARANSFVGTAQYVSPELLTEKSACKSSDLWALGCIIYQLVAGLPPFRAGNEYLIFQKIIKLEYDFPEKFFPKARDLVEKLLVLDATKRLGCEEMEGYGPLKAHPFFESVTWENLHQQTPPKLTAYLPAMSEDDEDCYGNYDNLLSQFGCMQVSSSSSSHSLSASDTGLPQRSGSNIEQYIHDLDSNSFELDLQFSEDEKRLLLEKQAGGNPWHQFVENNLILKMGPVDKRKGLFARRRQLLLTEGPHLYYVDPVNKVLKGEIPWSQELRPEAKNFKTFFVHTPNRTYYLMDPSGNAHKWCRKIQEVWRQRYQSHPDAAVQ", "chain of UniProt Q04771 (whole entry, looked up)": "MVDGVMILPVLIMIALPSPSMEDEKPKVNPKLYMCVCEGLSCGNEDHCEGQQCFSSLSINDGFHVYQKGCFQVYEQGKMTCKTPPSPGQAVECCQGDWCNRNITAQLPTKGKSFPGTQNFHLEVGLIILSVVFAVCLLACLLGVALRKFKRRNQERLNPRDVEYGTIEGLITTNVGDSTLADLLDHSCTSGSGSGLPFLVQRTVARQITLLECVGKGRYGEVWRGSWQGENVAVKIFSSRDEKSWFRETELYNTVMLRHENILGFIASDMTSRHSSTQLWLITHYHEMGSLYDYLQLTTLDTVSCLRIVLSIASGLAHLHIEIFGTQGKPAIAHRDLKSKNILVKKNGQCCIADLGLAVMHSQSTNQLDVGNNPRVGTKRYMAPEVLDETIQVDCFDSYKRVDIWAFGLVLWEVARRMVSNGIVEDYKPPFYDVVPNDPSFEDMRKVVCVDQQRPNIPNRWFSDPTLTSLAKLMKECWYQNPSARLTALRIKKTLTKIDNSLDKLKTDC", "chain of UniProt Q8N4C8 (whole entry, looked up)": "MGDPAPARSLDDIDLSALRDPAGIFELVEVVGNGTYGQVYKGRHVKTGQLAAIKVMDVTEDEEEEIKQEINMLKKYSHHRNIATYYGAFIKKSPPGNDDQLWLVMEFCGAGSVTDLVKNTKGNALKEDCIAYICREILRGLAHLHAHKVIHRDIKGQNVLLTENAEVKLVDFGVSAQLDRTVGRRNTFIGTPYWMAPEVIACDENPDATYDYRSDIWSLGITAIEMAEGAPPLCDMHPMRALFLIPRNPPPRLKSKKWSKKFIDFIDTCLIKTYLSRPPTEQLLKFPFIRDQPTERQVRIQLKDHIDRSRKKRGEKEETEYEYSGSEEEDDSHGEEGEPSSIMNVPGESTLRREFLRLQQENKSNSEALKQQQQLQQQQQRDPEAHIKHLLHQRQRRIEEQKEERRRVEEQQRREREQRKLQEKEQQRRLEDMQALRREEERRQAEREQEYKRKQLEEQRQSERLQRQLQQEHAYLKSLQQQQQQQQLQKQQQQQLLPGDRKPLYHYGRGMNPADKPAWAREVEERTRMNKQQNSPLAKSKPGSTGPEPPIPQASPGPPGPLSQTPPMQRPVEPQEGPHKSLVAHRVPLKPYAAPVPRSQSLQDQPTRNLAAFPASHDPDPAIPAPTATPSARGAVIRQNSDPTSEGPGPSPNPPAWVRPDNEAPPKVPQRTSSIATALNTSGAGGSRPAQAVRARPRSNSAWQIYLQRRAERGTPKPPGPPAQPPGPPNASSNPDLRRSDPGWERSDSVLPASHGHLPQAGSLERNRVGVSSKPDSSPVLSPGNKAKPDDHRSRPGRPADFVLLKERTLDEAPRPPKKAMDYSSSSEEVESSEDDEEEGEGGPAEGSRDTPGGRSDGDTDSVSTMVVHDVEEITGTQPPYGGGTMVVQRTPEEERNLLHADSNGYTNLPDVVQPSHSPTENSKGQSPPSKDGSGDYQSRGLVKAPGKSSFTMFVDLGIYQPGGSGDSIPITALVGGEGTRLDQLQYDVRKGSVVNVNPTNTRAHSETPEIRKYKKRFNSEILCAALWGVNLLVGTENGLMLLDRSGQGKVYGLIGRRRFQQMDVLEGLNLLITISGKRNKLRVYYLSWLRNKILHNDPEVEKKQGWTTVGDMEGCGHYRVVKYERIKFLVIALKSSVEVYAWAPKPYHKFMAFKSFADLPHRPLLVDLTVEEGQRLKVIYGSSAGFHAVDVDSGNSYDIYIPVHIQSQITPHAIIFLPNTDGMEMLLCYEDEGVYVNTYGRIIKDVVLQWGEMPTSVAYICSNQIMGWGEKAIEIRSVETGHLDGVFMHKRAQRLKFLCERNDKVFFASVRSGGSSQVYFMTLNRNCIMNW"}
{"data": "Block 1", "target": "Serine/threonine-protein kinase ULK3 (ULK3, Homo sapiens, UniProt Q6PHR2)", "effect on": "enzyme activity", "action": "inhibitor", "concentration": "0.5 µM", "relative to": "control", "Target sequence (Q6PHR2 1-472)": "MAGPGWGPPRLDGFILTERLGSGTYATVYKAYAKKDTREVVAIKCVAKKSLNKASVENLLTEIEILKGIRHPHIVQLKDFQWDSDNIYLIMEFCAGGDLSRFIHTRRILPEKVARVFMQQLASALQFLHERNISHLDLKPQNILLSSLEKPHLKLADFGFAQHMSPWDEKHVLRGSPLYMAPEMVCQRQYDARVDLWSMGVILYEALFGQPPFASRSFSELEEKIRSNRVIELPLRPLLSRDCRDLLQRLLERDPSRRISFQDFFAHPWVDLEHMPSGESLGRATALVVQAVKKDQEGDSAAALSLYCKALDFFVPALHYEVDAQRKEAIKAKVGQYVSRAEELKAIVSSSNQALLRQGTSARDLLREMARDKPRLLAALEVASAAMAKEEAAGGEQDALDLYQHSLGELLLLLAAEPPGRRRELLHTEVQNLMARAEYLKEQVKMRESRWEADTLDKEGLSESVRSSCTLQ"}
{"SMILES": "Cc1ccc(Nc2nccc(N(C)c3ccc4c(C)n(C)nc4c3)n2)cc1S(N)(=O)=O", "remaining activity": "102%"}
{"SMILES": "Cc1cccc(-c2[nH]c(C(C)(C)C)nc2-c2ccc3c(c2)OCO3)n1", "remaining activity": "80.4%"}
{"SMILES": "Cc1ccc(NC(=O)c2ccc(CN3CCN(C)CC3)cc2)cc1Nc1nc(-c2cccnc2)cs1", "remaining activity": "104%"}
{"SMILES": "N#CC(C#N)=C(N)/C(C#N)=C/c1ccc(O)cc1", "remaining activity": "67.8%"}
{"SMILES": "O=C(O)c1ccc2c3c1cccc3c(=O)n1c3ccccc3nc21", "remaining activity": "79.8%"}
{"SMILES": "O=C(CCCc1ccc(-c2ccccc2F)cc1)Nc1ccc(O)cc1", "remaining activity": "103%"}
{"SMILES": "Cc1nc(-c2ccccc2)c(-c2ccncc2)o1", "remaining activity": "94.3%"}
{"SMILES": "Oc1ccc(-c2nc(-c3ccncc3)c(-c3ccc(F)cc3)[nH]2)cc1", "remaining activity": "85.5%"}
{"SMILES": "CCOC(=O)c1c(C)[nH]c(/C=C2\\C(=O)Nc3ccccc32)c1C", "remaining activity": "76.7%"}
{"SMILES": "CNC(=O)c1cc(Oc2ccc(NC(=O)Nc3ccc(Cl)c(C(F)(F)F)c3)cc2)ccn1", "remaining activity": "103%"}
{"SMILES": "Nc1ccc2ncnc(NCCc3ccc(Oc4ccccc4)cc3)c2c1", "remaining activity": "112%"}
{"SMILES": "Nc1ncnc2n[nH]c(Nc3ccc(F)cc3)c12", "remaining activity": "92.8%"}
{"SMILES": "O=C1NC(=O)C(c2cn(CCCn3ccnc3)c3ccccc23)=C1Nc1ccccc1", "remaining activity": "84.7%"}
{"SMILES": "NCCNc1ncc(C(N)=O)c(Nc2cccc(C(F)(F)F)c2)n1", "remaining activity": "83.9%"}
{"SMILES": "COc1cc2nccc(Oc3ccc(NC(=S)NC(=O)c4ccccc4C)cc3)c2cc1OC", "remaining activity": "86.8%"}
{"SMILES": "C#Cc1cccc(Nc2ncnc3cc(OCCOC)c(OCCOC)cc23)c1", "remaining activity": "105%"}
{"data": "Block 2", "SMILES": "CC(=O)Nc1c(C(C)=O)c(=O)n(C)c2nc(-c3ccc(Cl)cc3Cl)c(-c3ccc(Cl)cc3)cc12", "method": "competition with immobilised ligand", "concentration": "1 µM"}
{"target": "PDPK1 (Homo sapiens, UniProt O15530)", "effect on": "cell-free assay", "remaining binding [%]": 100}
{"target": "MINK1 (Homo sapiens, UniProt Q8N4C8)", "effect on": "cell-free assay", "remaining binding [%]": 100}
{"target": "COQ8B (Homo sapiens, UniProt Q96D53)", "effect on": "cell-free assay", "remaining binding [%]": 100}
{"target": "Tyrosine-protein kinase ABL1, phosphorylated (ABL1, Homo sapiens, UniProt P00519, E255K)", "effect on": "binding", "remaining binding [%]": 94}
{"target": "MAP2K5 (Homo sapiens, UniProt Q13163)", "effect on": "cell-free assay", "remaining binding [%]": 94}
{"target": "ACVR1 (Homo sapiens, UniProt Q04771)", "effect on": "cell-free assay", "remaining binding [%]": 100}
{"data": "Block 3", "host": "mouse", "sample": "microsomes or S9", "concentration": "2 µM", "time": "0.5 h"}
{"SMILES": "O=c1[nH]nc(CNS(=O)(=O)c2cc(Cl)sc2Cl)[nH]1", "remaining compound [%]": 4.86}
{"SMILES": "O=C(NCCCn1cccn1)c1c(OCC2CC2)cc(=O)n2c1CCCCC2", "remaining compound [%]": 46.3}
{"SMILES": "CN(C)Cc1c(N)n(Cc2ccco2)c(=O)[nH]c1=O", "remaining compound [%]": 68.7}
{"SMILES": "COCCN(CC1CCCN(C2Cc3ccccc3C2)C1)C(=O)Cc1c[nH]c2ccccc12 (stereo not drawn)", "remaining compound [%]": 1.78}
{"SMILES": "Cc1cc2oc(C(=O)N3CCN(C)CC3)c(C)c2cc1C", "remaining compound [%]": 0.0104}
{"SMILES": "O=C(COc1ncnc2scc(-c3ccccc3)c12)c1ccc(S(=O)(=O)N2CCCC2)cc1", "remaining compound [%]": 2.59}
{"SMILES": "Cc1c(C#N)c2ccccc2n1Cc1nc(Cc2ccccc2)n[nH]1", "remaining compound [%]": 4.96}
{"data": "Block 4", "cell line": "mouse MPNST tumor cells", "method": "high-content nuclear imaging", "measured": "cell number", "concentration": "10 µM", "time": "12 h", "notes": "mean of 2 replicates", "relative to": "plate mean", "reading": "higher = more cells"}
{"SMILES": "Cc1nc(=O)c2cc(CN(C)c3ccc(C(=O)N[C@@H](CCC(=O)O)C(=O)O)s3)ccc2[nH]1", "nuclei count [z-score]": -2.64}
{"SMILES": "CCc1cccc(CC)c1NC(=O)CN(CC(=O)O)CC(=O)O", "nuclei count [z-score]": 1.01}
{"SMILES": "COc1ccc(Cl)c(Nc2ncnc3cc(OCC4CCN(C)CC4)c(OC)cc23)c1", "nuclei count [z-score]": -1.51}
{"SMILES": "CC(=O)Oc1cc(C(C)C)c(OCCN(C)C)cc1C", "nuclei count [z-score]": 1.99}
{"SMILES": "CC(=O)OC(C)C[N+](C)(C)C (stereo not drawn)", "nuclei count [z-score]": 1.48}
{"SMILES": "CCS(=O)(=O)N(Cc1cccnc1)c1cccc(-c2ccc(C#N)cc2)c1", "nuclei count [z-score]": -0.292}
{"SMILES": "O=C(c1ccc(F)cc1)C1CCN(CCCCc2ccccc2)CC1", "nuclei count [z-score]": 0.356}
{"note": "A few entries again (block 3):"}
{"SMILES": "Cc1cc2oc(C(=O)N3CCN(C)CC3)c(C)c2cc1C", "remaining compound [%]": 0.0104}
{"SMILES": "O=C(COc1ncnc2scc(-c3ccccc3)c12)c1ccc(S(=O)(=O)N2CCCC2)cc1", "remaining compound [%]": 2.59}
{"SMILES": "Cc1c(C#N)c2ccccc2n1Cc1nc(Cc2ccccc2)n[nH]1", "remaining compound [%]": 4.96}
